Experimental data from different studies.
Lines come from different studies, so protocols differ. Several values in a cell are separate wells, animals, samples, runs or records.

| SMILES | system | conditions | half-life |
| --- | --- | --- | --- |
| C=C(C)C(=O)Nc1ccc(-c2c(-c3ccc(Oc4nccc(C)n4)cc3)c3c(N)ncnc3n2C)cc1 | nude mouse, plasma | intravenous | 1.2 h |
| CN(C)CCNC(=O)/C=C/[C@H](Cc1ccccc1)Nc1ccnc2cc(Cl)ccc12 | CD-1 mouse, plasma | oral, 5 mg/kg, single dose | 1.46 h |
| CC1=C(/C=C/C(=O)N2CCN(C(N)=O)CC2)C(C)(C)CCC1 | male mouse, plasma | oral, 20 mg/kg, single dose | 0.854 h |
| COc1cccc(OCCN2CCC[C@H](CN3CCc4cc(OC)c(OC)cc4CC3=O)C2)c1 | male C57BL/6 mouse, plasma | intraperitoneal, 20 mg/kg | 0.79 h |
| O=C1C2=C(CCN(Cc3ccccc3)C2)N2CCN=C2N1Cc1ccc(C(F)(F)F)cc1 | female CD-1 mouse, plasma | oral, 50 mg/kg | 2.03 h |
| C[N+]1(CC(=O)OC2CCCCCCCCCCC2)CCCCC1 | mouse, plasma | intraperitoneal, 1 mg/kg, single dose | 0.8 h |
| COC(=O)c1ccc2c(c1)NC(=O)/C2=C(\Nc1ccc2c(c1)CCN2C(=O)CN1CCOCC1)c1ccccc1 | CD-1 mouse, plasma | oral, 50 mg/kg | 4.29 h |
| CCc1nc(N)nc(N)c1C#C[C@H](C)c1cc(-c2ccncc2)ccc1OC | mouse, plasma | intraperitoneal, 16 mg/kg, single dose | 0.33 h |
| CC(C)(C)OC(=O)N[C@H](Cc1ccccc1)[C@@H](O)CN1CCC(N2CCCCC2)CC1 | Swiss mouse, plasma | subcutaneous, 20 mg/kg, single dose | < 4 h |
| C[C@H]1CN(C(=O)c2cn(-c3ccnc(N)n3)c3cc(C#CC4(O)CCCCC4)ccc23)CCN1 | CD-1 mouse, plasma | oral, 10 mg/kg | 1.02 h |
| Cc1nc(N[C@@H](C)c2ccc(-c3nc(C4CC4)no3)cc2)c2cc(C)oc2n1 | mouse, plasma | oral, 10 mg/kg | > 12 h |
| COc1cc(OCCN2CCOCC2)cnc1-c1nc2cc(OC(F)(F)F)ccc2[nH]1 | mouse, plasma | oral, 100 mg/kg | 3.38 h |
| Cc1ccc2oc(-c3c4c(N)n[nH]c(=O)c4nn3-c3ccc(NC(=O)/C=C/CN(C)C)cc3)c(C)c2c1 | mouse, plasma | intraperitoneal, 3 mg/kg | 3.7 h |
| CCC/C(=C\C1=C(F)C(=O)c2ccccc2C1=O)C(=O)N(CC)CC | mouse, plasma | oral, 25 mg/kg | 3.7 h |
| CCc1nc(N)nc(N)c1C#C[C@H](C)c1cc(-c2cc(C)nc(C)c2)ccc1Cl | mouse, plasma | intraperitoneal, 5 mg/kg | 1.14 h and 1.15 h |
| O=c1c2cc(-c3ccc(Cl)cc3)nc(-c3cccnc3)c2ncn1C1CCC(O)CC1 (stereo not drawn) | BALB/c mouse, plasma | oral, 100 mg/kg, single dose | 29.7 h |
| Cc1cc(O)cc(O)c1C(=O)c1c2c3c(c(O)cc(C)c3oc1=O)C(=O)c1c(O)cc(O)cc1-2 | male Kunming mouse, plasma | intraperitoneal, 15 mg/kg | 0.712 h |
| CCC(=C(c1ccc(Cl)cc1)c1ccc(OCCN2CCOCC2)cc1)c1ccc(OC)cc1 | male C57BL/6 mouse, plasma | oral, 400 mg/kg, single dose | 8.5 h |
| O=C(OCc1cccc(O)c1O)c1ccc(O)c(CO)c1 | male CD-1 mouse, plasma | intravenous, 10 mg/kg | 0.042 h |
| O=C1CCc2ccc(NS(=O)(=O)c3cccc(Oc4ccccc4)c3)cc2N1 | C57BL/6 mouse, plasma | subcutaneous, 3 mg/kg | 2.3 h |
| Cc1sc2c(c1C)C(c1ccc(Cl)cc1)=N[C@@H](CC(=O)NCC(=O)N1CCC3(CCC(C(=O)N4CCN(C(=O)c5cc(Cc6n[nH]c(=O)c7ccccc67)ccc5F)CC4)CC3)CC1)c1nnc(C)n1-2 | male C57BL/6 mouse, plasma | intraperitoneal, 10 mg/kg | 2.3 h |

| SMILES | system | conditions | half-life |
| --- | --- | --- | --- |
| Nc1ccn(C[C@@H](CO)OCP(=O)(O)OCCCS(=O)(=O)CCCCCCCCCCCCC2CCC2)c(=O)n1 | mouse, plasma | intravenous, 3 mg/kg, single dose | 0.4 h |
| CN1CCC(N[C@@H]2CCc3[nH]c4c(C(N)=O)ccc(-c5ccccc5Cl)c4c3C2)CC1 | mouse, plasma | intravenous, 2 mg/kg | 12 h |
| COc1cc2c(cc1OC)CC(=O)N(C[C@H]1CCCN(CCOc3ccc(F)cc3)C1)CC2 | female C57BL/6 mouse, plasma | intraperitoneal, 20 mg/kg | 0.75 h |
| C[C@H]1CCCN1Cc1nc2cc(NC(=O)c3ccc4c(cnn4C)c3)ccc2[nH]1 | female BALB/c mouse, plasma | oral, 30 mg/kg | 0.83 h |
| CC(=O)N[C@@H](Cc1ccc(O)cc1)CN(CC(=O)N[C@@H](CCCCN)CN(CC(=O)N[C@@H](Cc1ccccc1)CN(CC(=O)N[C@H]1CCCCNc2c(F)c(F)c(c(F)c2F)S(=O)(=O)c2c(F)c(F)c(c(F)c2F)NCCCC[C@@H](CN(CC(=O)N[C@@H](C)CN(CC(N)=O)S(C)(=O)=O)S(C)(=O)=O)NC(=O)CN(S(=O)(=O)CC(C)C)C[C@H](CC(C)C)NC(=O)CN(S(=O)(=O)CCN)C1)S(=O)(=O)CC(C)C)S(=O)(=O)CCN)S(C)(=O)=O | C57BL/6 mouse, plasma | oral, 50 mg/kg | 3 h |
| CCNC(=O)c1noc(-c2cc(C(C)C)c(O)cc2O)c1NC(=O)CCN1CCOCC1 | nude mouse, plasma | intraperitoneal, 80 mg/kg, single dose, tumour-bearing | 5.8 h |
| CCOc1c(C(C)(C)O)sc2cnc(Nc3ccc(N4CCC(N5CC6(COC6)C5)CC4)cc3OC)nc12 | male C57BL/6 mouse, plasma | oral, 30 mg/kg | 6.9 h |
| CCOC(=O)c1nc2cc(Cl)c(Cl)cc2nc1N1CCN(C(=O)Nc2ccc(N3CCNCC3)cc2)CC1 | male mouse, plasma | oral, 10 mg/kg | 5.29 h |
| NS(=O)(=O)NCC(F)(F)c1ccccc1F | mouse, brain | oral, 5 mg/kg | 4.5 h |
| CC(C)Cn1c(SCC(=O)N2CCc3ccccc3C2)nc2cc(Cl)ccc2c1=O | male C57BL/6 mouse, plasma | intraperitoneal, 10 mg/kg | 6.17 h |
| O=C1OC2(c3ccccc31)c1cc(I)c(O)c(I)c1Oc1c2cc(I)c(O)c1I | female C57BL/6 mouse, plasma | oral, 100 mg/kg | 3 h |
| O=C(c1ccccc1)N1C(c2ccc(OCC3CCN(CCCF)C3)cc2)c2ccc(O)cc2CC12CC2 (stereo not drawn) | C57BL/6 mouse, serum | intraperitoneal, 25 mg/kg | 3.6 h |
| CCS(=O)(=O)c1ccccc1C(=O)N1CCN(c2nc3ccc(F)cc3s2)C[C@@H]1C | mouse, plasma | oral, 3 mg/kg | 1.73 h |
| CN1CC[C@H](c2c(O)cc(O)c3c(=O)cc(/C=C/c4c(Cl)cccc4Cl)oc23)[C@H](O)C1 | male BALB/c mouse, plasma | oral, 50 mg/kg | 5.06 h |
| CCC(CC)CNC(=N)NC(=N)NCCCCCCNC(=N)NC(=N)NCC(CC)CC | female BALB/c mouse, plasma | intraperitoneal, 5 mg/kg, single dose | 17 h |
| CC1=C(O)C(=O)C=C2C1=CC=C1[C@@]2(C)CC[C@@]2(C)[C@@H]3C[C@](C)(C(=O)NCCOCCOCCOCCOCC(=O)N[C@H](C(=O)N4C[C@H](O)C[C@H]4C(=O)N[C@@H](C)c4ccc(-c5scnc5C)cc4)C(C)(C)C)CC[C@]3(C)CC[C@]12C | male C57BL/6 mouse, plasma | intravenous, 2 mg/kg | 5.36 h |
| NC(=O)c1c(F)ccc(OCc2nc3cc(Cl)cnc3s2)c1F | mouse, plasma | intravenous, 3 mg/kg | 0.617 h |
| COc1cccc2c1C(=O)c1c(O)c3c(c(O)c1C2=O)C[C@@](O)(C(=O)CO)C[C@@H]3O[C@H]1C[C@H](N)[C@@H](O)[C@H](C)O1 | male Kunming mouse, plasma | intravenous, 5 mg/kg | 0.681 h |
| Nc1ccn(C[C@@H](CO)OCP(=O)(O)OCCCS(=O)(=O)CCCCCCCCCCC2CCC2)c(=O)n1 | mouse, plasma | intravenous, 3 mg/kg, single dose | 0.2 h |
| Cc1cc(C)c(S(=O)(=O)N(CC(=O)O)c2ccc(Nc3ccnc(N4CCCC4)n3)cc2)c(C)c1 | nude mouse, plasma | intraperitoneal, 100 mg/kg, single dose | 6.06 h |
| N#Cc1cnc2cc(OCC3CCNCC3)c(F)cc2c1Nc1cc(F)c(OCc2cccc(Cl)n2)cc1Cl | female CD-1 mouse, plasma | oral, 20 mg/kg | 10.3 h |

Excerpt of the above:
| SMILES | system | conditions | half-life |
| --- | --- | --- | --- |
| Cc1nc(N[C@@H](C)c2ccc(-c3nc(C4CC4)no3)cc2)c2cc(C)oc2n1 | mouse, plasma | oral, 10 mg/kg | > 12 h |
| COc1cc(OCCN2CCOCC2)cnc1-c1nc2cc(OC(F)(F)F)ccc2[nH]1 | mouse, plasma | oral, 100 mg/kg | 3.38 h |
| Cc1ccc2oc(-c3c4c(N)n[nH]c(=O)c4nn3-c3ccc(NC(=O)/C=C/CN(C)C)cc3)c(C)c2c1 | mouse, plasma | intraperitoneal, 3 mg/kg | 3.7 h |
